Experimental data of several laboratories.
Compare with care: the assays were run in different laboratories. Several values in a cell are separate wells, animals, samples, runs or records. Numbers after ± are the reported error.
Chain of UniProt P04062 (whole entry, unmodified, looked up): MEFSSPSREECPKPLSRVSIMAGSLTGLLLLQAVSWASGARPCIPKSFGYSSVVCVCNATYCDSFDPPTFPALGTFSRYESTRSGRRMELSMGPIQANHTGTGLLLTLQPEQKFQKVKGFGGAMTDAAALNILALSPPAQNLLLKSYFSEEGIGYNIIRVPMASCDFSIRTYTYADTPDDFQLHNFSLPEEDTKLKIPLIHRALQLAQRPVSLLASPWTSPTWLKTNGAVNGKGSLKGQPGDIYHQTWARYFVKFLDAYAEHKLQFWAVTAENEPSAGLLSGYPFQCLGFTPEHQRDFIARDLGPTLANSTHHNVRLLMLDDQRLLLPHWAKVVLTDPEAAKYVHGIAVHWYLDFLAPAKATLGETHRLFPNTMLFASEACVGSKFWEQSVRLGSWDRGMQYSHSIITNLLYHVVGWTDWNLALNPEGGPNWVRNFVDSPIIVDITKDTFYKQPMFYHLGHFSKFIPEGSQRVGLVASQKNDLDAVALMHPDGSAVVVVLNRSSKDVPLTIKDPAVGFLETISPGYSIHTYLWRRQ

SMILES	target or system	test	system	conditions	how to read	endpoint	result
C/C(=N\NC(=O)c1ccc(Cl)cc1)c1ccccn1	Trypanosoma cruzi	reporter mRNA translation, inhibitor, refers to: capped polyadenylated Renilla luciferase mRNA	cell-free extract	concentration not given	relative to: control RNA	relative translation	112%
C=CC(=O)Nc1cc(Nc2nccc(-c3cn(C)c4ccccc34)n2)c(OC)cc1N(C)CCNC			human plasma	5 h, storage stability, LLOQ sample		recovery	95.1%
CCCCN1C(=O)c2cccc3c(NCCN4CCOCC4)ccc(c23)C1=O			ethylene glycol			fluorescence lifetime	6.8 ns
O=S(=O)(NCc1ccncc1)c1ccc(C2CCCCC2)cc1			CK mouse	0.3 mg/kg	relative to: vehicle	swim speed change	15 ± 1 cm/s
OC[C@@H]1[C@@H](O)[C@H](O)[C@@H](O)CN1CCCCCOCc1ccc(-c2ccnc(F)c2)cc1	Lysosomal acid glucosylceramidase (GBA1, Homo sapiens, UniProt P04062, R534H)	inhibitor, 4MU-β-D-glucopyranoside		added: 4MU-β-D-glucopyranoside		IC50	2000 nM
CNc1cc(C)c(C(N)=O)cn1			Han Wistar rats, male, plasma	oral, 30 mg/kg, 1.50 h		concentration at time	81.1 µM
Cc1nc(N)nc2c1C(=O)N[C@@H](c1ccc(F)cc1-c1cccc(O[11CH3])n1)C2		ex vivo biodistribution	mice, MDA-MB-231 subcutaneous xenograft, heart	60 min post-injection, baseline, vehicle pre-treatment		SUV	1.6 ± 0.1
COc1ccccc1/C=C/CN1CCCC(CCC(=O)NCc2ccccc2F)C1 (stereo not drawn)	Trypanosoma cruzi	reporter mRNA translation, inhibitor, refers to: capped polyadenylated Renilla luciferase mRNA	cell-free extract	concentration not given	relative to: control RNA	relative translation	106%
CC(=O)N([O-])CCCCCNC(=O)CCC(=O)N([O-])CCCCCNC(=O)CCC(=O)N([O-])CCCCCN.[89Zr+4]			PBS	3 days, pH 7, 37 °C		intact compound	99.9 ± 0.1%
COc1cccc(OC)c1-c1cc(C(=O)NC2(C(=O)O)C3CC4CC(C3)CC2C4)nn1-c1ccc(C(=O)N(C)CCCN(C)C(=O)[C@H](CCCCNC(=O)[C@H](CC(C)C)NC(=O)C2OC2C(=O)O)NC(=O)CN2CCN(CC(=O)[O-])CCN(CC(=O)[O-])CCN(CC(=O)[O-])CC2)cc1C(C)C.[177Lu+3] (mixture of isomers)			mouse HT-29 xenograft, large intestine	72 h post injection, biodistribution		tissue uptake	0.154 %ID/g
O=C(Nc1cnccc1-c1ccc([18F])cc1)c1ccnc(NC(=O)C2CC2)c1			mice, transgenic, GSK-3β, early-stage, blood	intravenous, dose not given, 120 min		SUV	0.17
CN(C)S(=O)(=O)c1ccc(S(=O)(=O)N2CCC(n3c(=O)[nH]c4ccccc43)CC2)cc1			mouse	dose not given, day 5	relative to: day 0	relative body weight	100% and 105% and 102%
CN1CCCNC(=O)c2cccc(c2)C(=O)NCCCN(C)CCCNc2cccc3c2C(=O)c2cccc(c2C3=O)NCCC1			mouse xenograft model	dose not given, day 2		body weight	25 g and 24 g and 26 g
C#CCOCCOCCOCCOCCn1cc(C(ONC(=O)/C=C/C(C)=C/C2(C)Oc3cc(N(C)C)ccc3C2=O)(c2ccc(C)cc2)c2ccc(C)cc2)nn1 (stereo not drawn)		HPLC	aqueous buffer, 20% acetonitrile	concentration not given, 193 min, pH 3	relative to: initial prodrug amount	release from prodrug hydrolysis	52.2%
CN1CCC[C@]1(C)/C=C/S(=O)(=O)NC(=O)Nc1c2c(cc3c1CCC3)CC=C2			human, plasma	oral, 100 mg twice daily of parent drug, day 14, metabolite of dosed drug		Cmax at second steady-state dose	43600 ng/mL
CCC1CNC(CC)CN(C(C(=O)[O-])c2ccc(C(=O)[O-])cc2)C(CC)CN(CC(=O)[O-])C(CC)CN1.[Mn+2] (stereo not drawn)		ICP-MS	BALB/c mouse, spleen	intravenous, 0.05 mmol/kg, 1440 min, without anaesthesia		Mn content	0.43 ± 0.13 µg/g
O=C(NS(=O)(=O)c1cccs1)c1cc2ccccc2n1Cc1ccc(Br)c2ccccc12			KM mouse, chronic hyperuricaemia model	dose not given, day 6		body weight	27.9 g and 27.5 g and 27 g and 24.1 g and 28.1 g and 28.9 g
O=c1c2sccc2n(CC2COc3ccccc3O2)c(=O)n1O (stereo not drawn)			Caco-2	10 µM		efflux ratio	0.4

Excerpt of the above:
SMILES	target or system	test	system	conditions	how to read	endpoint	result
CCCCN1C(=O)c2cccc3c(NCCN4CCOCC4)ccc(c23)C1=O			ethylene glycol			fluorescence lifetime	6.8 ns
